Measured values of several laboratories.
Numbered parts are unrelated; each lists some results of a single study.

Series 1
Target: Interferon regulatory factor 7, full length, phosphomimetic (IRF7, Homo sapiens, UniProt Q92985, residues 1-503, S101K/S471D/S472D/S475D/S476D/S477D/S483D/S484D/S487D)
Technique: protein-binding microarray
Form: double-stranded DNA, one strand shown
Medium: in vitro
Concentration: 250 nM
Setting: 60-bp whole probe
Together with: salmon DNA 0.4 mg/ml
Relative to: random background probes
Direction: higher = stronger binding
Endpoint: log fluorescence
Constant ends, left off below: GCCTAGCAC … GTCTTGATTCGCTTGACGCTGCTG
Construct (chain): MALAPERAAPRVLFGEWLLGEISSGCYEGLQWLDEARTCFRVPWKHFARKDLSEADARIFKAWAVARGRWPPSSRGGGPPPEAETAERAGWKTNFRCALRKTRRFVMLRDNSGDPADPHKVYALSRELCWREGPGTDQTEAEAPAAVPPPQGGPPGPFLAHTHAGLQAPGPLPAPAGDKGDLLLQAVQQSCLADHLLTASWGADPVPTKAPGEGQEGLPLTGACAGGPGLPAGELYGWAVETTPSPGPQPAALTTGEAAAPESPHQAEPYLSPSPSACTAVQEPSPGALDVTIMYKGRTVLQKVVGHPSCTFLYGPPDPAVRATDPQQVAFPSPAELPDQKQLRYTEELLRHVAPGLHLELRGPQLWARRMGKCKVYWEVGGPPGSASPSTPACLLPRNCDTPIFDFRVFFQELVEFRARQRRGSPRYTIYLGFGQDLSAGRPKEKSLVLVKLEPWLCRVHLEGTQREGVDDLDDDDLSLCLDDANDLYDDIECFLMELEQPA
TTAGGTTCCGGTTTTGGTTAGTGCTAG: 6.48 z-score
GACGATTTCTGACTGGAGACGTGCTAG: -0.0344 z-score
ACTGAAATCACCCTTGGAAGTGTGCTA: -0.512 z-score
TTAGGTATCGACACTGGTTTAGTGCTA: 0.04 z-score
TCATCTCCCAGACTGGAACTGTGCTAG: 0.624 z-score
CCTTTTATGGTATTTTTTTCGTGCTAG: 1.78 z-score
TCACCTATGTCATTTACACTGTGCTAG: 0.143 z-score
GACGATTTCAGACTGTAGACGTGCTAG: 0.244 z-score
GACGGTTTCGACTATCGCGACGTGCTA: 5.63 z-score
GACGAACTGAGGTATCGAGACGTGCTA: -0.309 z-score
TTAGAACTGGGGTTTCGACTAGTGCTA: 2.05 z-score
TGGAATTTCCCTCTCCCCTCGTGCTAG: 0.546 z-score

Series 2
Target: BIRC6 UBC core domain (UniProt Q9NR09)
Technique: yeast two-hybrid
Medium: yeast
Setting: mostly zero background
Relative to: not given
Direction: higher = stronger interaction
Endpoint: lacZ reporter activity
B1: RNF14 RING domain (UniProt Q9UBS8); chain IKCFNSKLFLCSICFCEKLGSECMYFLECRHVYCKACLKDYFEIQIRDGQVQCLNCPEPKCPSVATPGQVK
B2: TRIM55 RING domain (UniProt Q9BYV6); chain TMDNLEKQLICPICLEMFTKPVVILPCQHNLCRKCASDIFQASNPYLPTRGGTTMASGGRFRCPSCRHEVVLDRHG
B3: TRIM38 RING domain (UniProt O00635); chain STKKMMEEATCSICLSLMTNPVSINCGHSYCHLCITDFFKNPSQKQLRQETFCCPQCRAPFHMDSLRP
B4: NSMCE1 RING domain (UniProt Q8WV22); chain RETYPDAVKICNICHSLLIQGQSCETCGIRMHLPCVAKYFQSNAEPRCPHCNDYWPHEIPKV
B5: ANKIB1 RING domain (UniProt Q9P2G1); chain LSPGDLDTSLCDICMCSISVFEDPVDMPCGHDFCRGCWESFLNLKIQEGEAHNIFCPAYDCFQLVPVDIIE
B6: RFPL2 RING domain (UniProt O75678); chain MAALFQEASSCPVCSDYLEKPMSLECGCAVCLKCINSLQKEPHGEDLLCCCSSMVSRKNKIRR
B7: RNF43 RING domain (UniProt Q68DV7); chain SGSSCSSAPVCAICLEEFSEGQELRVISCLHEFHRNCVDPWLHQHRTCPLCMFNITEGDSFS
Residues (chain): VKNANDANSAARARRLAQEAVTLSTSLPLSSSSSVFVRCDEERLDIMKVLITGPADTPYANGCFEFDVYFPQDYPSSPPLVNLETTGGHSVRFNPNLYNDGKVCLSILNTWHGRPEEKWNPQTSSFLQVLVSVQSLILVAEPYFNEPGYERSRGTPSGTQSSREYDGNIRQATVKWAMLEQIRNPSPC
B1 (RNF14 RING domain): 0
B2 (TRIM55 RING domain): 0
B3 (TRIM38 RING domain): 0
B4 (NSMCE1 RING domain): 0
B5 (ANKIB1 RING domain): 0
LKQVSIRENCCSLCCDEVADTQLKPCGHSDLCMDCALQLETCPLCRKEIVSRIRQI (RSPRY1 RING domain (UniProt Q96DX4)): 0
B6 (RFPL2 RING domain): 0
B7 (RNF43 RING domain): 0

Series 3
Target: RING finger protein unkempt homolog, zinc fingers 1-6, SBP tag (UNK, Homo sapiens, UniProt Q9C0B0, residues 30-357)
Sequence of UniProt Q9C0B0 (30-357, looked up): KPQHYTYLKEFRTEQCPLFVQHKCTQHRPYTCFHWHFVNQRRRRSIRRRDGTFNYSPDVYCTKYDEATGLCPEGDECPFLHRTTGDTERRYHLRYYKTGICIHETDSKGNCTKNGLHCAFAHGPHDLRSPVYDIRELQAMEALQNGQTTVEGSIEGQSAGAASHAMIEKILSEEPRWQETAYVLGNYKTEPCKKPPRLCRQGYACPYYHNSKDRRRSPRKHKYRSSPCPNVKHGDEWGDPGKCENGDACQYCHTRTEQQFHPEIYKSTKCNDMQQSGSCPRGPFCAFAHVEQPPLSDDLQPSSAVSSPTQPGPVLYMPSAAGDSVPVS
Technique: RNA Bind-n-Seq
Form: RNA
Medium: in vitro
Concentration: 100 nM
Setting: RNA with constant flanks, vertebrate orthologous sites, ends assumed
Relative to: input RNA pool
Direction: higher = stronger binding
Endpoint: bound/input enrichment
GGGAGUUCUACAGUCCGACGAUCAGUCCCCUGGGCGGACGGAUUUUUUUUUUUUUAGUGUCUUGAAACUUAAAACUGUGCUUGUAGGAGACUGUAACCUUUUUGUCUUUUUUUUAAACAAAUAACCUCCACCUCCAGUGGCUGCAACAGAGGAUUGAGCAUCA: 0.722 ratio
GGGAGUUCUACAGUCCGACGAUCGGUUAAUGUGUUAUUUAUUGAGUAUAGUUUGUGCUAAGCAUUGUGUUAGAUUUAAAAAAUUAGUGGAUUGACUCCACUUUGUUGUGUUGUUUUCAUUGUUGAAAAUAAAUAUAACUUUGUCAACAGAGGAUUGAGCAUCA: 0.961 ratio
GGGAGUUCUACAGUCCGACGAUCCACAUCUGGCGAUAUUUGGCCUGGCCUUUCAGCUUAUGAUAAUAGUCCCCGGUCACCCCAUAGUCCUUCACCUAUUGCUACACCACCUAGUCAGAGCUCAUCUUGUUCUGAUGCCCCCAUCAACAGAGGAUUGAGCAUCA: 1.04 ratio
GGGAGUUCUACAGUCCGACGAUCAGUAGUUUAAAGCUUGUUUGCACAGUUCUUUUUUUCCAUUGGAAAUGGAAUUCAUUGCCUUAGGUCUUUUUAAAUAGUGUAUUAUUAUCGUUGGGGCUGGCUCUAUGCUUGAAAACCAGUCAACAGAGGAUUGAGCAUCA: 3.06 ratio
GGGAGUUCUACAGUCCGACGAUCUGGUGACGUGCUUGCUGUCUGUCCCCCGCGGGGGCCCGGCCGGCUGUCUCUCGGACGUGUGACCUGUCGCACAGGAAGAGGUGUGCCCAGGUCAUCCUGCUGAAUUCCUCUCUGAGUCUGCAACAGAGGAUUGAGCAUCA: 0.627 ratio
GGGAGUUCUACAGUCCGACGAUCGAAAUGGCCAGUGGAGGAAUACCUGCCUUGGCCUUGCCUCCCCUCCUUGCCACCUGCCCCUAGGUAUUUUUUUUUUAACCACCACAUGAAUCCGGUUGGCACUUCCUCCCCUGACCAGCUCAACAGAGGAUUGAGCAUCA: 2.49 ratio
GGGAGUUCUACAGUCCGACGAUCUUGUUUUGUACAGGGCAUUCUCUGUACUAGUUUGUUGUGGUUAUAAAACAAUUAGCAAAACAGCUUACAUUUGUAUUUAUUUUCUAUUCCAUACUCUCCCUGCCCCAUGUUUUCUCUUUCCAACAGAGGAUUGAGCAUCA: 0.571 ratio

Series 4
Target: Sal-like protein 4, full length isoform B (SALL4, Homo sapiens, UniProt Q9UJQ4-2, residues 1-616)
Technique: universal PBM
Form: double-stranded DNA, one strand shown
Medium: in vitro
Concentration: not given
Setting: 8-mer, flanks averaged, mean of replicates
Direction: higher = stronger binding
Endpoint: E-score
AGAGGCCA: -0.162
GATGCGTA: 0.0328
GGTTAGAA: -0.0158
ATCTTATG: 0.171
CCTAACAC: -0.0199
CGTTATGA: 0.296
AAGACTGT: 0.0275
ATTCACTA: 0.119
CGGATCAC: -0.224
CCATGCTC: -0.179
CGTAGTCA: -0.0219
CTTGCTCA: -0.198
ACTTAGAC: 0.0846
CCGTAGTC: -0.178
CTGCCCAG: -0.332
AACTAAAA: 0.247
ATGGTGGG: -0.222
GCGTGAGC: -0.113

Some of these lines once more (series 2):
B1 (RNF14 RING domain): 0
B4 (NSMCE1 RING domain): 0
B3 (TRIM38 RING domain): 0
B5 (ANKIB1 RING domain): 0
